{"data": "Assay results collected from several papers", "note": "A part holds a random share of what one study measured. Changes are numbered by the printed parent chain."}
{"data": "Set 1", "target": "UDP-N-acetylglucosamine--peptide N-acetylglucosaminyltransferase 110 kDa subunit (OGT, Homo sapiens, UniProt O15294)", "read-out": "binding", "method": "phage display NGS", "molecule type": "peptide", "baseline": "input library", "UniProt O15294, sequence (whole entry, looked up)": "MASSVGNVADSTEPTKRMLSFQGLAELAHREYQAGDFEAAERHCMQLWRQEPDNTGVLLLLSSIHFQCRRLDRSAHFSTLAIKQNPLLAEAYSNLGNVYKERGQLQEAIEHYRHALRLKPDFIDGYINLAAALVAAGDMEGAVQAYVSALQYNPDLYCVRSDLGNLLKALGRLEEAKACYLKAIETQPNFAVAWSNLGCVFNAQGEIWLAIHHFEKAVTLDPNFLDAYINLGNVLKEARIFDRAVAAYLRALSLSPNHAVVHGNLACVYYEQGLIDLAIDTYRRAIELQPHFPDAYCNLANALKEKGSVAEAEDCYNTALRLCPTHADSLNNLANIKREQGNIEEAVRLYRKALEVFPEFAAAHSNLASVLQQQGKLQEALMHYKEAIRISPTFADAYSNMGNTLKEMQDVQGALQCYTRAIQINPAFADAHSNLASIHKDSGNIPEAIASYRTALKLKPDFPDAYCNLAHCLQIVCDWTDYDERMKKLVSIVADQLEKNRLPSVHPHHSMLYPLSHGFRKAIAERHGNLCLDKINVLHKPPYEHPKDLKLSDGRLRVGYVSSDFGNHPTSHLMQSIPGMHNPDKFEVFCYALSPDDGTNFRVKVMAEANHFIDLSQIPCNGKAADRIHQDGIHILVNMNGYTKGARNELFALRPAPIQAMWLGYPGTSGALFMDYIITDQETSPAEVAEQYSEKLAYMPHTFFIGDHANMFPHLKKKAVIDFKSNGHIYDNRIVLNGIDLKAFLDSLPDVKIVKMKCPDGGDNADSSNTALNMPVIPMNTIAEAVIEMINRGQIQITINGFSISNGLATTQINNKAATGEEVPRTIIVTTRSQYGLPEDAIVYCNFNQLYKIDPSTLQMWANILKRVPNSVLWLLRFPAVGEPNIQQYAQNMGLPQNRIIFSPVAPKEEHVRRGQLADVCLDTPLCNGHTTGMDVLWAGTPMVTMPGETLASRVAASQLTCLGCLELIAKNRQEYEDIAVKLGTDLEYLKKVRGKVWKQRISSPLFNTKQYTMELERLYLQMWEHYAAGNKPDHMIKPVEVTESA"}
{"Sequence": "YFTTPMYQIYYERA", "minimum log2 enrichment ratio": 3.76}
{"Sequence": "DEGLFLPFYDITPSF", "minimum log2 enrichment ratio": 2.62}
{"Sequence": "QQPRYYPQYQMRYKV", "minimum log2 enrichment ratio": 3.22}
{"Sequence": "YYLPAYQIAPKYVQD", "minimum log2 enrichment ratio": 2.89}
{"Sequence": "ASQYDFMPAYRIDVG", "minimum log2 enrichment ratio": 3.22}
{"Sequence": "EPYIGPHHMHHYEHS", "minimum log2 enrichment ratio": 5.95}
{"Sequence": "TLHQQFYPPMYFIKV", "minimum log2 enrichment ratio": 3.28}
{"Sequence": "HTPMREHQQIHWHKF", "minimum log2 enrichment ratio": 2.99}
{"data": "Set 2", "target": "inorganic phosphate, free oxyanion", "method": "microfluidic competitive inhibition", "medium": "in vitro, cell-free expressed", "tested at": "not given", "setting": "derived from inhibition constants, unchanged parent 615000 nM", "reading": "lower = stronger binding", "starting sequence": "PafA, mature enzyme, eGFP fusion (Elizabethkingia meningoseptica, UniProt Q9KJX5); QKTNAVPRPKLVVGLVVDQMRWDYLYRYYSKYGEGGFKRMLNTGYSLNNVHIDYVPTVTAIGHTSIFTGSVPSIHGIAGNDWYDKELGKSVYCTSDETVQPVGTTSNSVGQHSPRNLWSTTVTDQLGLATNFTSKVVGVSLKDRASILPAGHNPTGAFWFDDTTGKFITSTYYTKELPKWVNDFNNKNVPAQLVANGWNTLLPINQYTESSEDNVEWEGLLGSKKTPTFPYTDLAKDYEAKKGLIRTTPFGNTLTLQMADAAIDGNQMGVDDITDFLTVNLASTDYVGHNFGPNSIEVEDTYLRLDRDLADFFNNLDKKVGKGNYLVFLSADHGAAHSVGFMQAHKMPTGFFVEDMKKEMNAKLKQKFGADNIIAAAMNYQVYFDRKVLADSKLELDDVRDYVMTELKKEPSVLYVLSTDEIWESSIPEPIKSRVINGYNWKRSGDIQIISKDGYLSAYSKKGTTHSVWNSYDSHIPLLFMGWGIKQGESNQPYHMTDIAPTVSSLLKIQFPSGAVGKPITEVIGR"}
{"Variant": "E239G", "phosphate dissociation constant": "441 µM"}
{"Variant": "L456G", "phosphate dissociation constant": "323 µM"}
{"Variant": "K409G", "phosphate dissociation constant": "566 µM"}
{"Variant": "L329V", "phosphate dissociation constant": "535 µM"}
{"Variant": "D96G", "phosphate dissociation constant": "< 529 µM"}
{"Variant": "N48G", "phosphate dissociation constant": "629 µM"}
{"Variant": "T43V", "phosphate dissociation constant": "650 µM"}
{"Variant": "A235V", "phosphate dissociation constant": "546 µM"}
{"data": "Other studies, line by line"}
{"Substance": "CN1C(=O)NC(=O)C(=Cc2ccc[nH]2)C1=O", "tested on": "His6 tag", "test": "AlphaScreen counter screen", "conditions": "concentration not given", "endpoint": "inhibition", "value": "-1.3%"}
{"Substance": "SCFD1 (Homo sapiens, UniProt Q8WVM8)", "tested on": "STX18 (Homo sapiens, UniProt Q9P2W9)", "test": "cross-linking MS", "conditions": "hits only", "endpoint": "interaction screen", "value": "cross-linked"}
{"note": "For quick reference, copied from above (other studies, line by line):"}
{"Substance": "CN1C(=O)NC(=O)C(=Cc2ccc[nH]2)C1=O", "tested on": "His6 tag", "test": "AlphaScreen counter screen", "conditions": "concentration not given", "endpoint": "inhibition", "value": "-1.3%"}
{"Substance": "SCFD1 (Homo sapiens, UniProt Q8WVM8)", "tested on": "STX18 (Homo sapiens, UniProt Q9P2W9)", "test": "cross-linking MS", "conditions": "hits only", "endpoint": "interaction screen", "value": "cross-linked"}
